Published values pooled from the literature.
Protocols differ between the studies behind these lines. Several values in a cell are separate wells, animals, samples, runs or records. Numbers after ± are the reported error.
Cell line: HaCaT

For `CC[C@H](C)[C@H](NC(=O)CNC(=O)[C@H](CC(N)=O)NC(=O)[C@H](Cc1ccc(O)cc1)NC(=O)[C@H](CO)NC(=O)CNC(=O)[C@H](CCCNC(=N)N)NC(=O)[C@H](CCC(N)=O)NC(=O)[C@H](Cc1ccccc1)NC(=O)[C@H](Cc1ccccc1)NC(=O)[C@H](Cc1c[nH]cn1)NC(=O)[C@H](Cc1ccccc1)NC(=O)[C@@H](N)Cc1c[nH]c2ccccc12)C(=O)O`, the IC50 was over 200 µM (cytotoxicity, MTT; 24 h, 37 °C).
`N.N.O=C([O-])C1(C(=O)[O-])CCC1.[Pt+2]` gave an IC50 of 119 ± 5.93 µM (cell viability, MTT; 48 h).
For `CC[C@H](C)[C@H](NC(=O)[C@H](CCCNC(=N)N)NC(=O)[C@H](CCCCN)NC(=O)[C@H](CCC(N)=O)NC(=O)[C@H](CCCNC(=N)N)NC(=O)[C@H](CCCNC(=N)N)NC(=O)[C@H](Cc1c[nH]cn1)NC(=O)[C@H](CC(C)C)NC(=O)[C@H](CC(C)C)NC(=O)[C@H](CCCNC(=N)N)NC(=O)[C@H](CC(C)C)NC(=O)CN)C(=O)N[C@H](C(=O)NCC(=O)NCC(=O)N[C@@H](CCCCN)C(=O)N[C@@H](CC(N)=O)C(=O)N[C@@H](CO)C(=O)N[C@@H](CC(C)C)C(=O)N[C@@H](CCCNC(=N)N)C(=O)NCC(=O)NCC(=O)N[C@@H](Cc1c[nH]c2ccccc12)C(=O)N1CCC[C@H]1C(=O)N[C@@H](Cc1c[nH]c2ccccc12)C(=O)N[C@@H](CCC(N)=O)C(=O)N[C@H](C(=O)N[C@@H](CO)C(=O)N[C@@H](CC(C)C)C(=O)N[C@@H](CCCNC(=N)N)C(=O)N[C@@H](CC(C)C)C(=O)N[C@@H](CCCCN)C(=O)O)C(C)C)[C@@H](C)CC`, the CC50 was 26.9 µM (cell viability, MTT).
`O=C1CCP(=S)(c2ccccc2)CC1` has a viability of 73% (trypan blue; IC50, 72 h).
`COc1cc2ncnc(Nc3cccc(Cl)c3)c2cc1OC` has a viability of 94% and 92.4% and 94.3% (3.704 µM, 60 h).
`CC[C@H](C)[C@H](NC(=O)[C@H](CC(C)C)NC(=O)[C@@H]1CCCN1C(=O)[C@H](CCC(N)=O)NC(=O)[C@H](CCCCN)NC(=O)[C@H](Cc1c[nH]cn1)NC(=O)[C@H](CS)NC(=O)[C@H](CCCNC(=N)N)NC(=O)[C@H](CCCCN)NC(=O)[C@H](CO)NC(=O)[C@H](CC(C)C)NC(=O)[C@H](CO)NC(=O)[C@H](Cc1ccccc1)NC(=O)[C@H](CC(C)C)NC(=O)[C@H](CCCCN)NC(=O)[C@H](Cc1c[nH]cn1)NC(=O)[C@@H](NC(=O)[C@@H](NC(=O)[C@H](CCCCN)NC(=O)[C@H](CCC(N)=O)NC(=O)[C@H](C)NC(=O)[C@H](CCCCN)NC(=O)[C@H](CC(C)C)NC(=O)[C@H](Cc1ccccc1)NC(=O)[C@H](CC(C)C)NC(=O)[C@H](CCC(N)=O)NC(=O)[C@@H](N)CCCCN)[C@@H](C)CC)C(C)C)C(=O)N[C@@H](CO)C(=O)N[C@@H](CC(C)C)C(=O)N1CCC[C@H]1C(=O)N[C@@H](CCCNC(=N)N)C(=O)N[C@@H](CCC(N)=O)C(=O)N[C@@H](CCCNC(=N)N)C(=O)O` gave a CC50 of 31.4 µM (cell viability, MTT).
`COC(=O)C=Cc1ccc(OC(C)=O)c(OC(C)=O)c1` gave a subcytotoxic concentration of 50 µM (MTT; 24 h, 10% FBS).
For `CC[C@H](C)[C@H](NC(=O)[C@H](CCCNC(=N)N)NC(=O)[C@H](CCC(N)=O)NC(=O)[C@@H](NC(=O)[C@@H](NC(=O)[C@H](CCCNC(=N)N)NC(=O)[C@H](CCCCN)NC(=O)[C@H](Cc1ccccc1)NC(=O)CN)[C@@H](C)CC)C(C)C)C(=O)N[C@@H](CCCCN)C(=O)N[C@@H](CC(=O)O)C(=O)N[C@@H](Cc1ccccc1)C(=O)N[C@@H](CC(C)C)C(=O)N[C@@H](CCCNC(=N)N)C(=O)N[C@@H](CC(N)=O)C(=O)N[C@@H](CC(C)C)C(=O)N[C@H](C(N)=O)C(C)C`, the LC50 was 75 µM (cell viability, MTS; 1 h, 37 °C, 10% FBS).
`CC(=O)Oc1ccc(C=CC(=O)O)cc1OC(C)=O` gave a subcytotoxic concentration of 50 µM (MTT; 24 h, 10% FBS).
The CC50 of `CC[C@H](C)[C@H](NC(=O)[C@H](Cc1c[nH]cn1)NC(=O)[C@@H](NC(=O)[C@@H](NC(=O)[C@H](CC(C)C)NC(=O)[C@H](CCCCN)NC(=O)[C@H](CCCCN)NC(=O)[C@@H]1CCCN1C(=O)[C@H](CC(C)C)NC(=O)[C@H](CC(C)C)NC(=O)[C@H](CCC(N)=O)NC(=O)[C@@H](NC(=O)CNC(=O)[C@H](CC(C)C)NC(=O)[C@H](CCC(N)=O)NC(=O)[C@H](CC(C)C)NC(=O)[C@H](CCCNC(=N)N)NC(=O)[C@H](CC(N)=O)NC(=O)[C@H](CCCCN)NC(=O)[C@H](CC(N)=O)NC(=O)[C@H](CCCNC(=N)N)NC(=O)[C@@H](NC(=O)[C@H](CO)NC(=O)[C@H](Cc1ccccc1)NC(=O)[C@H](CC(C)C)NC(=O)[C@H](Cc1ccccc1)NC(=O)[C@H](C)NC(=O)[C@H](CC(N)=O)NC(=O)[C@H](CC(N)=O)NC(=O)[C@@H](NC(=O)[C@H](CCCNC(=N)N)NC(=O)[C@@H](N)Cc1c[nH]cn1)C(C)C)[C@@H](C)CC)C(C)C)C(C)C)C(C)C)C(=O)N[C@@H](CCCNC(=N)N)C(=O)NCC(=O)N[C@@H](CCCCN)C(=O)N[C@@H](CCC(N)=O)C(=O)N1CCC[C@H]1C(=O)N[C@@H](C)C(=O)N[C@H](C(=O)N[C@@H](Cc1ccccc1)C(=O)O)C(C)C` is reported as 25.3 µM (cell viability, MTT).

Some of these lines once more:
`N.N.O=C([O-])C1(C(=O)[O-])CCC1.[Pt+2]` gave an IC50 of 119 ± 5.93 µM (cell viability, MTT; 48 h).
For `CC[C@H](C)[C@H](NC(=O)[C@H](CCCNC(=N)N)NC(=O)[C@H](CCCCN)NC(=O)[C@H](CCC(N)=O)NC(=O)[C@H](CCCNC(=N)N)NC(=O)[C@H](CCCNC(=N)N)NC(=O)[C@H](Cc1c[nH]cn1)NC(=O)[C@H](CC(C)C)NC(=O)[C@H](CC(C)C)NC(=O)[C@H](CCCNC(=N)N)NC(=O)[C@H](CC(C)C)NC(=O)CN)C(=O)N[C@H](C(=O)NCC(=O)NCC(=O)N[C@@H](CCCCN)C(=O)N[C@@H](CC(N)=O)C(=O)N[C@@H](CO)C(=O)N[C@@H](CC(C)C)C(=O)N[C@@H](CCCNC(=N)N)C(=O)NCC(=O)NCC(=O)N[C@@H](Cc1c[nH]c2ccccc12)C(=O)N1CCC[C@H]1C(=O)N[C@@H](Cc1c[nH]c2ccccc12)C(=O)N[C@@H](CCC(N)=O)C(=O)N[C@H](C(=O)N[C@@H](CO)C(=O)N[C@@H](CC(C)C)C(=O)N[C@@H](CCCNC(=N)N)C(=O)N[C@@H](CC(C)C)C(=O)N[C@@H](CCCCN)C(=O)O)C(C)C)[C@@H](C)CC`, the CC50 was 26.9 µM (cell viability, MTT).
